Published values pooled from the literature.
Numbered parts are unrelated; each lists some results of a single study. Several values in a cell are separate wells, animals, samples, runs or records.
Chain of UniProt Q09013 (whole entry, looked up): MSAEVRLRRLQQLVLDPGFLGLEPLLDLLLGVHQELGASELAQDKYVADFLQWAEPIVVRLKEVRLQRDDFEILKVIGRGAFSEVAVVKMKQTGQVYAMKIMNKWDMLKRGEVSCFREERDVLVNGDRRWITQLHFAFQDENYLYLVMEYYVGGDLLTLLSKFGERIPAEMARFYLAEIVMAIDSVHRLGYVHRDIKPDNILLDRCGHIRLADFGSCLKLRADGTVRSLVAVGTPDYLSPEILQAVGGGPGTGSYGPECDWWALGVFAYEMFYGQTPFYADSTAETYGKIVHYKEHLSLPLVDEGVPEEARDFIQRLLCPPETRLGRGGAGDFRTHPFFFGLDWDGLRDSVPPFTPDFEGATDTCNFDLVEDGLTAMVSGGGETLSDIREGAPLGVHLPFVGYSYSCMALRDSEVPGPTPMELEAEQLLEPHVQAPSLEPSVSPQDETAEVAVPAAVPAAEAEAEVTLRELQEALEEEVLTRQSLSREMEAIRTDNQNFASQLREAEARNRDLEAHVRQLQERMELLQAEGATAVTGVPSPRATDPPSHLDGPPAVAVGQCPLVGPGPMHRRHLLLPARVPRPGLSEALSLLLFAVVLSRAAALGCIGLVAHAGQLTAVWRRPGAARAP
Chain of UniProt P41279 (whole entry, looked up): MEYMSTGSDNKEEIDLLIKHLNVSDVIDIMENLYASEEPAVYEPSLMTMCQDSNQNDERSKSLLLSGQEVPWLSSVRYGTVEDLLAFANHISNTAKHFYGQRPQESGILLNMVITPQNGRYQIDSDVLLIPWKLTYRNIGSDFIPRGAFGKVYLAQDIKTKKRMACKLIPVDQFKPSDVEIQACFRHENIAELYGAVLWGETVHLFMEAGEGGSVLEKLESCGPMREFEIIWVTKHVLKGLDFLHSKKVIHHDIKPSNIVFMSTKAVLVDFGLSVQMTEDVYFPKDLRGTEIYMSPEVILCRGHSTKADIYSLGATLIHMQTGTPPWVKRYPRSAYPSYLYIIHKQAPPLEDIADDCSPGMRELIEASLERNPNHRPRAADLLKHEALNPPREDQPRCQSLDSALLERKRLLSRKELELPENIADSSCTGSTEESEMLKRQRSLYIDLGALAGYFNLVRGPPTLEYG
Chain of UniProt O15530 (whole entry, looked up): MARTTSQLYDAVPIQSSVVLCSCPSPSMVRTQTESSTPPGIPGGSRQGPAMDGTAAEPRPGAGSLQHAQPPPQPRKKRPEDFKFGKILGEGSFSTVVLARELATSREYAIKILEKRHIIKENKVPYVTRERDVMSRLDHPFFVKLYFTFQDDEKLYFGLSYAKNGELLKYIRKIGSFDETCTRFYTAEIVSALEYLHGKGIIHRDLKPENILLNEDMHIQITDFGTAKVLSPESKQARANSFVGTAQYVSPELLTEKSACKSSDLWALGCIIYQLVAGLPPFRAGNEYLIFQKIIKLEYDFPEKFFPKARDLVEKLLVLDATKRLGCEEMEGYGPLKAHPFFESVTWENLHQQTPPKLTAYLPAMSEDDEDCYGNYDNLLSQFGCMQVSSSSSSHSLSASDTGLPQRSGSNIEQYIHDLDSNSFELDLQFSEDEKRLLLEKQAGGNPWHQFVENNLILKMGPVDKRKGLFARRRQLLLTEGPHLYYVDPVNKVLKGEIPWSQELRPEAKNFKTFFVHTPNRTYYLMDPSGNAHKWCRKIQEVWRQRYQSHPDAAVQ
Chain of UniProt Q99720 (whole entry, looked up): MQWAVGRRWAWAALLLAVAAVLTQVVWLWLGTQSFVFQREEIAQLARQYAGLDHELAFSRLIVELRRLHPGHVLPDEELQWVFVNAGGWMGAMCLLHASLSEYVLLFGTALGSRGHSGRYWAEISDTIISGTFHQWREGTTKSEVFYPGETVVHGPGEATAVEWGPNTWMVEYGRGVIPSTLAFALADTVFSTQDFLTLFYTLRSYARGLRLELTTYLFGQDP

Study 1 — effect on: enzyme activity; mode: inhibitor; tested at: 10 µM
Target: Calcium/calmodulin-dependent protein kinase type II subunit alpha (CAMK2A, Homo sapiens, UniProt Q9UQM7)
Chain of UniProt Q9UQM7 (whole entry, looked up): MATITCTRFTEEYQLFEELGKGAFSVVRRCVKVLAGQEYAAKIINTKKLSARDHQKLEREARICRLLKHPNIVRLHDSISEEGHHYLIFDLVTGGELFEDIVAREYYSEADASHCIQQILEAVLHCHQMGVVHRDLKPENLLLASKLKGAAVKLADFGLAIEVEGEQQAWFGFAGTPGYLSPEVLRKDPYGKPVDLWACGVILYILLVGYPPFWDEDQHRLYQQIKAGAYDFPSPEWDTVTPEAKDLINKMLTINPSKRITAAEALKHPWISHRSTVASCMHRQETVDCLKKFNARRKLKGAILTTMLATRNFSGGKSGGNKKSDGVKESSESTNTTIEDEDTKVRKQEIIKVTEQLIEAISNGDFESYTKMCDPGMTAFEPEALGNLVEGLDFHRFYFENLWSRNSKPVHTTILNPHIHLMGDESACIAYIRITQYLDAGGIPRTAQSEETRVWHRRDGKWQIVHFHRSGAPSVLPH
Compound	inhibition [%]
O=c1[nH]c(=O)n(C2CCCO2)cc1F (centres unmarked)	0
NC(Cc1c[nH]c2ccccc12)C(=O)O (racemic)	27
NC(=O)CC[C@H](N)C(=O)O	48
COc1cc(N)c(Cl)cc1C(=O)NC1CCN(Cc2ccccc2)CC1	-16
CC1=C(/C=C/C(C)=C/C=C/C(C)=C/C(=O)O)C(C)(C)CCC1=O	1
C/C=C1/[C@H](O[C@@H]2O[C@H](CO)[C@@H](O)[C@H](O)[C@H]2O)OC=C(C(=O)OC)[C@H]1CC(=O)OCCc1ccc(O)c(O)c1	25
CC1(C)S[C@@H]2[C@H](N=CN3CCCCCC3)C(=O)N2[C@H]1C(=O)O	-6
COc1cc([C@@H]2Oc3c(O)cc([C@H]4Oc5cc(O)cc(O)c5C(=O)[C@@H]4O)cc3[C@H]2CO)ccc1O	-18
CC(=O)[C@@]1(O)CC[C@H]2[C@@H]3CCC4=CC(=O)CCC4=C3[C@@H](c3ccc(N(C)C)cc3)C[C@@]21C	-1
CC(C)CCC(=O)O	-48
O=C(O)CCc1ccc(O)cc1	14
C/C1=C\CC(C)(C)/C=C/C(=O)/C(C)=C/CC1	-27

Study 2 — effect on: enzyme activity; tested at: 5 µM; reference: untreated control
Structure (SMILES): O=C(Nc1cnn(-c2csc(C(=O)NC3COC3)c2)c1)Nc1c(F)cccc1Cl
target	remaining activity
Myotonin-protein kinase (DMPK, Homo sapiens, UniProt Q09013)	110%
Mitogen-activated protein kinase kinase kinase 8 (MAP3K8, Homo sapiens, UniProt P41279)	87.6%
3-phosphoinositide-dependent protein kinase 1 (PDPK1, Homo sapiens, UniProt O15530)	99.1%
Lymphokine-activated killer T-cell-originated protein kinase (PBK, Homo sapiens, UniProt Q96KB5)	95.7%
Ephrin type-A receptor 8 (EPHA8, Homo sapiens, UniProt P29322)	92.7%
Megakaryocyte-associated tyrosine-protein kinase (MATK, Homo sapiens, UniProt P42679)	99.1%
NT-3 growth factor receptor (NTRK3, Homo sapiens, UniProt Q16288)	36.5%
Inhibitor of nuclear factor kappa-B kinase subunit alpha (CHUK, Homo sapiens, UniProt O15111)	106%

Study 3 — effect on: enzyme activity; mode: inhibitor; tested at: 77 µM; reference: untreated
Target: DNA polymerase theta, ATPase domain (POLQ, Homo sapiens, UniProt O75417)
Chain of UniProt O75417 (whole entry, unmodified, looked up): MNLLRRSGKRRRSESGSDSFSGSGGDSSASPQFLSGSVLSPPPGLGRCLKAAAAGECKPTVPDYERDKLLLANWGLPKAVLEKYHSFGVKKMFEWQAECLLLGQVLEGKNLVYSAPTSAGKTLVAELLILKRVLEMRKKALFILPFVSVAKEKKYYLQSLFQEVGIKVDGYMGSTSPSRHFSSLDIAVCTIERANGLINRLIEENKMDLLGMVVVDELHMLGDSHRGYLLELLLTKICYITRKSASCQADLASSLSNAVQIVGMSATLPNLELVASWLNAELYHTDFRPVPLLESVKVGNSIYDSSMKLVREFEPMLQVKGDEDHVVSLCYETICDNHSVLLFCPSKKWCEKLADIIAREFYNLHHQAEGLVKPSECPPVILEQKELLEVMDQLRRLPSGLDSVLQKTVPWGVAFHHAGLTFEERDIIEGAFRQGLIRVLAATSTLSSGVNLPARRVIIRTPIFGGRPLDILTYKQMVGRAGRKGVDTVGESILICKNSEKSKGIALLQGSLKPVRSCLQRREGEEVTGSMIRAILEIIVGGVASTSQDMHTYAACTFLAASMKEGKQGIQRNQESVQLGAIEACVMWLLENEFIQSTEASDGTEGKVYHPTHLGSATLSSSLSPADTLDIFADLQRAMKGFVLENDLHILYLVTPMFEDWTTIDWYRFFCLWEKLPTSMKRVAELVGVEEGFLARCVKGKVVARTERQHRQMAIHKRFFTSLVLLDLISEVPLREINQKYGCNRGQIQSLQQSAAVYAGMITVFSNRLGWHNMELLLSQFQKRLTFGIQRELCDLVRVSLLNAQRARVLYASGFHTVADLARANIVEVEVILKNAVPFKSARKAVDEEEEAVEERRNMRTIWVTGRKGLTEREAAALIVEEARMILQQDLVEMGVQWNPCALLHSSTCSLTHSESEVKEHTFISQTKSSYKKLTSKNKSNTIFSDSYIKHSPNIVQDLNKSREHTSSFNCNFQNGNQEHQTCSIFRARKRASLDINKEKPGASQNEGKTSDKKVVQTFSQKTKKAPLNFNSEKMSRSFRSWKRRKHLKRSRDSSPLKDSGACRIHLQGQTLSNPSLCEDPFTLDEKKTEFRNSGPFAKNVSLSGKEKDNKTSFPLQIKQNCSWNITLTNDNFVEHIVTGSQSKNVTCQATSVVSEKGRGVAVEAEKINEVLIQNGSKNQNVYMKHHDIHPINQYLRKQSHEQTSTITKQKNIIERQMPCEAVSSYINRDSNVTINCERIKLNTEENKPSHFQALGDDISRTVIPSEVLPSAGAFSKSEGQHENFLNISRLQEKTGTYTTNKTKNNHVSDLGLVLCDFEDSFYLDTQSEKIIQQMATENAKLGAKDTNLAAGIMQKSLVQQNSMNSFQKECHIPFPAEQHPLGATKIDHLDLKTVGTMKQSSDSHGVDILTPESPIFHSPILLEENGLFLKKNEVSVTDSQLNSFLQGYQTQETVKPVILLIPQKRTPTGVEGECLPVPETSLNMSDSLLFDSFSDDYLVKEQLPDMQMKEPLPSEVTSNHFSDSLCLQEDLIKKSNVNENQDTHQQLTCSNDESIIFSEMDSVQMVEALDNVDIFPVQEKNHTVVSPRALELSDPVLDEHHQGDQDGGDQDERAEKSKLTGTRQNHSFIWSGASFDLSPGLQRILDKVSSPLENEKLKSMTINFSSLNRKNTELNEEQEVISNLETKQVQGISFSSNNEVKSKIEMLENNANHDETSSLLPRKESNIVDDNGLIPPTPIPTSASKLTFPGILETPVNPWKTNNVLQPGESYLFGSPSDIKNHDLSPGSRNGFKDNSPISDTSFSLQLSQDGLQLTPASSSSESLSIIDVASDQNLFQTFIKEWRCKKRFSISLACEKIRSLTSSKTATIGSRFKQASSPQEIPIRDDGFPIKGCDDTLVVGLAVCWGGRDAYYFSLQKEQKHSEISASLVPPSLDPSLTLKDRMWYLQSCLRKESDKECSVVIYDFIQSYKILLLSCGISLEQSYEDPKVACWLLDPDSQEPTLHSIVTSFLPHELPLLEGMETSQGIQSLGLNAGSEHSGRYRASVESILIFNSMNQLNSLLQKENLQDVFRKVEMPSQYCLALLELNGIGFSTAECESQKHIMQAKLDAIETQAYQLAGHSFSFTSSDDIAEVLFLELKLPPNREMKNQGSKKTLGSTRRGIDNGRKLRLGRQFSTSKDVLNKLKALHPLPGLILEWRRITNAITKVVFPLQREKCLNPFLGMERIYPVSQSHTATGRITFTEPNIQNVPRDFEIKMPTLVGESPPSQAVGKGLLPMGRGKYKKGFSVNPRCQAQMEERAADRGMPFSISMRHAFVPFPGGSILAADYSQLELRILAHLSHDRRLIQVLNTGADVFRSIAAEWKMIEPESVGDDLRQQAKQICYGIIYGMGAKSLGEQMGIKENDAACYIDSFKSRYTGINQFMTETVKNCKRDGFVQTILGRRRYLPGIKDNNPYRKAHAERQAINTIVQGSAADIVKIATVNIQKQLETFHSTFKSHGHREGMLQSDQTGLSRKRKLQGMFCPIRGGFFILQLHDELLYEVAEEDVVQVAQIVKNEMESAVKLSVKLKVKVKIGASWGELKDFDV
Structure (SMILES)	remaining activity
COc1cc2c(CCNC(C)=O)c[nH]c2cc1Cl	114%
Clc1ccc(N2CCN(Cc3c[nH]c4ncccc34)CC2)cc1	91.2%
N=C(N)c1ccccc1	99.5%
COc1ccccc1N1CCN(CCCCN2C(=O)c3ccccc3C2=O)CC1	96%
O=C(O)CNC(=O)C(CS)Cc1ccccc1 (racemic)	107%
Cc1ccc([C@@H]2O[C@H](CO)[C@@H](O)[C@H](O)[C@H]2O)cc1Cc1ccc(-c2ccc(F)cc2)s1	94.3%
NNC(=O)c1ccncc1	92.2% and 96.1%

Study 4 — effect on: cell-free assay; tested at: 10 µM
Compound: CNCc1ccccc1-c1csc([C@@H](C)Nc2nc(C)nc3cc(OC)c(OC)cc23)c1
target	inhibition [%]
5-hydroxytryptamine receptor 7 (HTR7, Homo sapiens, UniProt P34969)	76.2
Alpha-1A adrenergic receptor (ADRA1A, Homo sapiens, UniProt P35348)	71.6
Sigma non-opioid intracellular receptor 1 (SIGMAR1, Homo sapiens, UniProt Q99720)	22.6
5-hydroxytryptamine receptor 6 (HTR6, Homo sapiens, UniProt P50406)	-1.41
Alpha-2A adrenergic receptor (ADRA2A, Homo sapiens, UniProt P08913)	91.7
Muscarinic acetylcholine receptor M5 (CHRM5, Homo sapiens, UniProt P08912)	64.8
Histamine H1 receptor (HRH1, Homo sapiens, UniProt P35367)	49.4
D(1A) dopamine receptor (DRD1, Homo sapiens, UniProt P21728)	82.7
